Literature values, collected from citations in different studies.
Compare with care: the assays were run in different laboratories. ± marks the error that the study gave. Bridge positions count the residues as written; N and C are the ends. Ends that are not written are not given here.
UniProt P22001, sequence (whole entry, looked up): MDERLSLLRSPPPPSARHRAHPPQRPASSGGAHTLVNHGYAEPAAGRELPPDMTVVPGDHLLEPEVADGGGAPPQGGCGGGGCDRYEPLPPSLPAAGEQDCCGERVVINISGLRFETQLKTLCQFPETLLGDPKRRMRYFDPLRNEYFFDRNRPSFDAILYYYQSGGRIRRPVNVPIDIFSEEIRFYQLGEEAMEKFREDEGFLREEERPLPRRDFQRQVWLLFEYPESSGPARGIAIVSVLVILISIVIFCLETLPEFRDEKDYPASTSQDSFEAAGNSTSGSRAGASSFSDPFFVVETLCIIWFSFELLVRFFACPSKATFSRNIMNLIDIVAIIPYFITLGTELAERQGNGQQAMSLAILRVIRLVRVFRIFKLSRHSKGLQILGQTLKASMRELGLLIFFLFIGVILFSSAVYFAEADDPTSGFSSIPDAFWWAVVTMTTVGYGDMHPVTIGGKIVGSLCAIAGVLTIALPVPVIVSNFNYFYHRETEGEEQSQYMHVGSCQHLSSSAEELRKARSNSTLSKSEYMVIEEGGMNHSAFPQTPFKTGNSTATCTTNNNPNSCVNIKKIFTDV
UniProt P0AEE3, sequence (whole entry, looked up): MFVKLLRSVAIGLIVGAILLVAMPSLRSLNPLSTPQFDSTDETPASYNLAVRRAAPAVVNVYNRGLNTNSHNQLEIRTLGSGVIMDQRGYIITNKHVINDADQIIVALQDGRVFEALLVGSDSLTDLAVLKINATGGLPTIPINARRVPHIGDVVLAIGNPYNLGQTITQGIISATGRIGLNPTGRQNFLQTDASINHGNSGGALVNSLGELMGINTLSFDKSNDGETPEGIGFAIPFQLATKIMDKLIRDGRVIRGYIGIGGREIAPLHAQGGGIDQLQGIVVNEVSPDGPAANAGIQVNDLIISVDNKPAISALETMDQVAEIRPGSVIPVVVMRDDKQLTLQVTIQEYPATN
UniProt Q2M2I8, sequence (whole entry, looked up): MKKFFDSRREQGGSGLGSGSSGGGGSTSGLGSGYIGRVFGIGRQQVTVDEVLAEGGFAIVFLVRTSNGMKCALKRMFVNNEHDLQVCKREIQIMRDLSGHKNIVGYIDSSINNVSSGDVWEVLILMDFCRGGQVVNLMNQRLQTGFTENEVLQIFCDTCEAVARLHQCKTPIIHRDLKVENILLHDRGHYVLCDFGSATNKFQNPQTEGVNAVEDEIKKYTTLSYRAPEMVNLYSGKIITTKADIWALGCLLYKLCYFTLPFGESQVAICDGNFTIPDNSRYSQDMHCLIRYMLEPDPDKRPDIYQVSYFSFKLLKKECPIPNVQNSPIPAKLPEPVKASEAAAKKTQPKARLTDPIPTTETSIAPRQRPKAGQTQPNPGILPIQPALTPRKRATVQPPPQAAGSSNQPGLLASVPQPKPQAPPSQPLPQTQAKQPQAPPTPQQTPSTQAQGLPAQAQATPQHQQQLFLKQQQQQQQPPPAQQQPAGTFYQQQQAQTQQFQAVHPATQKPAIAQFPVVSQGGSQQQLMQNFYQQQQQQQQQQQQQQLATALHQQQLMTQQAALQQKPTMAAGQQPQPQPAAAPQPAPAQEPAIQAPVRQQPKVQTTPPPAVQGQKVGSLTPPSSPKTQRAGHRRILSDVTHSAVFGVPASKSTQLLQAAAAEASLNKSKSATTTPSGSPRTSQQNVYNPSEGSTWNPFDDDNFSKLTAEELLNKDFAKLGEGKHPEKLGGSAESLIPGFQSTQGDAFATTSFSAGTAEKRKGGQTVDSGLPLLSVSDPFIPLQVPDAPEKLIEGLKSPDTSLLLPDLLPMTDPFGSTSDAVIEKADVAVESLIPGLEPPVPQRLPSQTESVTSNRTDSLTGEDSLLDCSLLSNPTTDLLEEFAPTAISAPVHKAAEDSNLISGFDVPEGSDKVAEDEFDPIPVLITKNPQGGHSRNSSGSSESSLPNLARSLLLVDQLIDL

Substance | target | read-out | technique | matrix | setting | with | Kd
CC[N+](CC)(CC)CC | KCNA3 (Homo sapiens, UniProt P22001) | binding | – | – | positive control | – | 10000 µM
COc1ccc2cccc(N3CCN(CCNC(=O)c4ccc(F)cc4)CC3)c2c1 | 5-HT1A receptor | binding | – | – | – | – | 0.00079 µM
N[C@@H](Cc1c[nH]cn1)C(=O)O | EgtD (Mycolicibacterium smegmatis) | binding | isothermal titration calorimetry | – | – | – | 290 ± 14 µM
OCc1ccc(-c2nn(Cc3ccccc3)c3ccccc23)o1 | soluble guanylate cyclase, bovine lung | binding | equilibrium dialysis | – | without NO or CO | Mn2+ | 52 µM
CCS(=O)(=O)N1CC(CC#N)(n2cc(-c3ncnc4[nH]ccc34)cn2)C1 | AAK1 (Homo sapiens, UniProt Q2M2I8) | binding | – | – | – | – | 0.017 µM
[Mg+2] | PhoQ | binding | – | – | – | – | 300 µM
CHPQFC (disulfide 1-6) (disulfide) | Streptavidin (Streptomyces avidinii, UniProt P22629) | binding | – | – | – | – | 0.27 µM
OC[C@H]1O[C@H](O[C@H]2[C@H](O)[C@@H](O)C(O)O[C@@H]2CO)[C@H](O)[C@@H](O)[C@@H]1O (mixture of isomers) | maltose-binding protein E. coli | – | – | – | MalFGK2 complex outward-facing | – | ~120 µM
COc1ccc(CCN2CCN(C/C=C/I)CC2)cc1OC [iodine-123 labelled] | sigma-1 receptor mouse | – | cold saturation binding | brain membranes | – | – | 0.00379 µM
CSCC[C@H](NC(=O)[C@H](CC(C)C)NC(=O)[C@H](Cc1ccccc1)NC(=O)[C@H](CC(=O)O)NC(=O)[C@H](Cc1ccc(O)cc1)NC(=O)[C@H](Cc1c[nH]c2ccccc12)NC(=O)[C@@H](NC(=O)[C@@H](NC(=O)[C@H](CCCNC(=N)N)NC(=O)[C@@H](N)CO)C(C)C)[C@@H](C)O)C(=O)N[C@@H](CCC(=O)O)C(=O)N[C@@H](CC(=O)O)C(=O)N[C@H](C(=O)N[C@@H](CCCCN)C(=O)N[C@@H](CO)C(=O)N[C@@H](CCCNC(=N)N)C(=O)O)[C@@H](C)O | Gαs | binding | surface plasmon resonance | – | – | – | 5.1 µM
CC[C@H](C)[C@@H]([C@@H](CC(=O)N1CCC[C@H]1[C@H](OC)[C@@H](C)C(=O)N[C@H](C)[C@@H](O)c1ccccc1)OC)N(C)C(=O)[C@@H](NC(=O)[C@@H](NC)C(C)C)C(C)C | tubulin | binding | fluorescence polarization | – | – | – | 0.291 µM
N=C(N)NCCC[C@H](NC(=O)[C@H](CC(N)=O)NC(=O)[C@H](CC(=O)O)NC(=O)[C@H](CCCCN)NC(=O)[C@H](CCCCN)NC(=O)CCNC(=S)Nc1ccc2c(c1)C(=O)OC21c2ccc(O)cc2Oc2cc(O)ccc21)C(=O)N[C@@H](CC(=O)O)C(=O)NCC(=O)N[C@@H](CC(N)=O)C(=O)N[C@@H](Cc1ccc(O)cc1)C(=O)N[C@@H](Cc1ccc(O)cc1)C(=O)N[C@@H](Cc1ccccc1)C(=O)O | Serine endoprotease DegS (degS, Escherichia coli, UniProt P0AEE3) | binding | – | – | – | – | 4.6 ± 0.3 µM
CCCC(=O)O[C@@H]1[C@@H](C)[C@@]2(O)[C@@H](C=C(CO)C[C@]3(O)C(=O)C(C)=C[C@@H]23)[C@@H]2C(C)(C)[C@]12OC(=O)CCC | PKC delta with C1a only | binding | – | – | – | – | 0.13 µM

For quick reference, copied from above:
Substance | target | read-out | technique | matrix | setting | with | Kd
OCc1ccc(-c2nn(Cc3ccccc3)c3ccccc23)o1 | soluble guanylate cyclase, bovine lung | binding | equilibrium dialysis | – | without NO or CO | Mn2+ | 52 µM
